Measurements of several laboratories.
A part holds a random share of what one study measured.

Set 1
Target: Histone acetyltransferase KAT6A, both winged helices, GST fusion (KAT6A, Homo sapiens, UniProt Q92794, residues 1-181)
Method: protein binding microarray
Molecule type: double-stranded DNA, one strand shown
Sample: in vitro
Concentration: not given
Setting: 8-mer, flanks averaged, mean of 2 arrays, mostly near background
Baseline: not given
Reading: higher = stronger binding
Target sequence (chain): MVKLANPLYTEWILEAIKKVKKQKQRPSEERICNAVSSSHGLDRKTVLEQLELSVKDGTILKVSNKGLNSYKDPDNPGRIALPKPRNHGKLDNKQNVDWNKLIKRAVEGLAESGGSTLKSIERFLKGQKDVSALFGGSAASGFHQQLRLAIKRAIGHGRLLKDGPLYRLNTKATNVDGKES
| Strand | E-score |
| --- | --- |
| AAGTGAGC | -0.215 |
| CCACCAGC | -0.182 |
| CCACGTAG | -0.162 |
| AGGAAGAT | -0.165 |
| AGATCTGA | -0.0104 |
| GATGTCAC | -0.0555 |
| AAGCGTGG | 0.035 |
| CATAACGC | 0.111 |
| AACCTCCT | -0.198 |
| CACTCTCA | -0.0653 |
| ACGATGAT | -0.0138 |
| ACCTCCTC | -0.207 |
| AGTTCAAT | -0.135 |
| CTAACGAC | -0.0987 |
| AACTTAGA | -0.0814 |
| AGAGACGC | 0.208 |
| CAGGTCTC | -0.141 |
| GAATTGCA | -0.22 |
| CTTTCGCA | -0.0593 |
| ACTCACGC | 0.167 |
| GTCTGCAC | -0.0259 |
| CCCCAGTA | -0.172 |
| GATACGCA | 0.108 |
| CATGCCTC | 0.141 |
| TCACTCGA | -0.188 |

Set 2
Target: RNA binding protein fox-1 homolog 2, RRM domain, GST-SBP tag (RBFOX2, Homo sapiens, UniProt O43251-10, residues 100-194)
Method: RNA Bind-n-Seq
Molecule type: RNA
Sample: in vitro
Concentration: 365 nM
Setting: natural RNA segment, single round, ends assumed
Baseline: no-protein control
Reading: higher = stronger binding
Shared flanks, not repeated: GGGAGUUCUACAGUCCGACGAUC … UGGAAUUCUCGGGUGCCAA
Construct (chain): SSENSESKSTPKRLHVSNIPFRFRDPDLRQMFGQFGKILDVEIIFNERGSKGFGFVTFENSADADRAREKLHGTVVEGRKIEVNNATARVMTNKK
| Strand | RBNS enrichment (R) |
| --- | --- |
| ACCUUGUUACAGUUGGUUUAGUGUAGUGGAUUAUUGACAUGACAUCAUGAGAAGAUGUGUAAUUUUAUACCACAUUUAUAAAACAUGAUUUUGUUUUCUACCCUUCAAGG | 0.376 |
| UGACCAGUCUGCCUGCUCCUUACUAUAAUUGUGAGGAUUUGUUACUGGAACAGUACAUGGAGGCCUGACCUUGUGGGGGCACAGGGUGGAACCUUAGCUGAAUAUAGUGU | 1.82 |
| GGUCUUGAAUUUUGUUGGUUACAUAUGCCUUUUUGUUGUUGUUUGUCUUCACUUUUGAUAUAUAAACAGGUAAAUAUGUUUUUUAAAAAAUACUAAAUAUAGAGAAUAUG | 0.65 |
| GACCCUAAGAAGAGCAGGCAGCUGUGCUUGUUGAGAUAUGAGGACAGAAAAGGGACACCCUUUUAUGGUGUCAACUUUUGGAUCUGGGUUUCCCCCAGAUGUUGGGUUGC | 0.274 |
| AGAGAAUUACUGAGUUCCUCUCAGGACCCCUGAAGAAGCUAUAAGUCAGUACCAGUAGCUUCAGGGUCUGUCGUAGGAGCGAGGACAACUGUAAACACAGGGUCCGCUGA | 0.268 |
| CGCCCCCUCCCUGACAGGUGUCUUGUCAAGGUGUAUCCUCCGAGUAUCUUGACCACCUGGCACCAUGCAUGGCCAGAGCUCAUGUCAUCUCCUGCCUCUGUCACCUCAGU | 1.93 |
| UUCCAUUGUAUCUUUCUAAUAAGGGUUUAAAAUGGUACUAUUAUGGUAUUGUACUUGGGCUUUAACAUCAAUGUUGCUUUGAUGUUGUUGGAUAUAAAUAGGAAUUUUUA | 0.444 |
| UUGUCAGCGAGGCUCCCUGCCACCUAUACUACCAGGUGCUUUGUAGCAGAGAGAGCCCAUCUGCAGAAACCCAGUUGUACUACCUGGGCUUGCUUAAUUUCUACAGGCUG | 0.325 |
| AGGGCUUCACUCCCAGAGCACCCCCUUAAUCCCCACUUUUCAGGCCGUCUCAGUAUUGCCUAUGGGGGGUCACCCUCCUUCCCCUACCCCAAGUGCCUUUGCUAUGUUUU | 1.47 |
| AAUGUCCCUGCGAACCCACAAUCUCUGCCAGCAGAACUGGUUUUGUUCUGAAUAGUACAGAUUGAUGUGAACACAAAGCAUUUUGUGUAAGGAGAACCCCUUUCUUUUAA | 0.28 |
| ACCCAUGAAAUACUUCAUCUUGAGAAGAGUGCUAUGUGGAAAUCACCAAAUAUCUCGCAACUUUAUUUCAUCUGGUGUAAAUCUGAACAUCAACAUAGGAAAACUGUCAU | 0.443 |
| AUGAAAGACUCAUUGUCUUUGUAUUCAGCUCUUAAAUAGUGUAACUAUAUCCCCACCUCUGCUUGCUUUCUUUCCCUCCCCUCCAAUGAUAAAGAAAAUGAUAAAUUUUC | 2.81 |

Set 3
Target: Fragile X messenger ribonucleoprotein 1, C-terminal low-complexity region (Fmr1, Mus musculus, UniProt P35922)
Method: RNA Bind-n-Seq
Molecule type: RNA
Sample: in vitro
Concentration: 200 nM
Setting: whole 134-nt RNA, ends assumed
Together with: 150 mM LiCl
Baseline: input library
Reading: higher = stronger binding
Each molecule: 7-deaza-guanosine replaces G
Shared flanks, not repeated: GGGAGUUCUACAGUCCGACGAUC … UGGAAUUCUCGGGUGUCAAGG
| Strand | log2 enrichment |
| --- | --- |
| GUCCUGUGCUACACAUCGUAUGUACCGAAUCGGGUUUUUGGGAAAGGGAAAAAAAGGGAAAGUAUUAUGUUACGCCGUUCGGAUCUGCAC | -0.835 |
| CAAGUCCUGUGCUACACAUCGUAUGUACCGAAUCGGCCCGGGGCCCGGGGCCCGGAAAGUAUUAUGUUACGCCGUUCGGAUCUGCACUUC | -1.36 |
| UGGGAGGUGGAUUUUGUUUAUUUUUUUAGCUCAUUUCCAGGGGUGGGAAUUUUUUUUUAAUAUGUGUCAUGAAUAAAGCUGUUUUUGAAA | 0.159 |
| CCUGUGCUACACAUCGUAUGUACCGAAUCGGAAAAAAAGGAAAAAAAGGGGAAAAAAAGGAAAGUAUUAUGUUACGCCGUUCGGAUCUGC | -0.668 |
| AAGUCCUGUGCUACACAUCGUAUGUACCGAAUCGGGGUUUGGGGUUUGGGGUGGGGAAAGUAUUAUGUUACGCCGUUCGGAUCUGCACUU | -0.901 |
| UUGGCUACAAUGCAGAGACACAGAAACUACUAUGCAAGAAUGGGGAAACGCUGCUAGGAGCCGUGAACUUCUUUGUCUCUAGCAUCAACA | -1.05 |
| CUCAAGUCCUGUGCUACACAUCGUAUGUACCGAAUCGGAAGGGGAAGGAAGGGGAAAGUAUUAUGUUACGCCGUUCGGAUCUGCACUUCC | 0.0295 |
| AGUCCUGUGCUACACAUCGUAUGUACCGAAUCGGGCCCCGGGGCCCCGGGGCCCCGGAAAGUAUUAUGUUACGCCGUUCGGAUCUGCACU | 0.455 |
| ACCAUGCAGGUGGGCAUCUCUGGGAAGUGGGGCAAGGGGGGGAUAGGGAGGGGGGUAACACUUUGGGAACAGGUGGUCCCAGGUCGUUUC | 1.53 |
| GCAGGAAGUAAAAACAAAUGGAAAUGCUUCGGAUAGUGGCAGGGGUGGGGGUUGCUAAGGAAAGGGUGGGAUCGGAGUGGGUAAAGAGUU | 0.842 |
| CAAGUCCUGUGCUACACAUCGUAUGUACCGAAUCAAAUUUAAAUUUAAAUUUAAAAAAGUAUUAUGUUACGCCGUUCGGAUCUGCACUUC | -2.17 |

Set 4
Target: Interferon regulatory factor 5, full length, phosphomimetic (IRF5, Homo sapiens, UniProt Q13568-2, residues 1-514, S451D/S453D/S456D/S462D)
Method: protein-binding microarray
Molecule type: double-stranded DNA, one strand shown
Sample: in vitro
Concentration: 940 nM top
Setting: 60-bp whole probe
Together with: salmon DNA 0.4 mg/ml
Baseline: random background probes
Reading: higher = stronger binding
Shared flanks, not repeated: GCCTAGCAC … GTCTTGATTCGCTTGACGCTGCTG
| Strand | fitted relative affinity [z-score] |
| --- | --- |
| TTTGGACTGGACTTTCGGTTAGTGCTA | 2.7 |
| AACGGTCTCCTACTGCTGACGTGCTAG | -0.00428 |
| TTCGATATCGGGTATCGATTAGTGCTA | 3.56 |
| AACGAACTGAGTCTCGAGACGTGCTAG | 0.862 |
| GACGAACTGGGGACTGGACACGTGCTA | -0.278 |
| TCATGTCTGTGTTTCCTACTGTGCTAG | 0.579 |
| TTAGATTTCAGACTGGACTAGTGCTAG | -0.204 |
| TTACTTCCCAATTGTCTTTTCGTGCTA | 1.66 |
| GATGATATCGGGACTGGAGACGTGCTA | -0.213 |
| GACGGCATCGGTATCGGGACGTGCTAG | 1.29 |
| GACTGTTTCCTTCTCCTGACGTGCTAG | 1.07 |
| TTAGGTATCGATTTCGGTTAGTGCTAG | 9.04 |
| GACGATATCGGGACCGGAGACGTGCTA | 0.146 |
| TTAGGTTTCCTACTGCATTAGTGCTAG | 0.818 |
| TTAGGAATCCTACTGCTTTAGTGCTAG | -0.305 |
| GACGGACTGCTTTTCCTGGCGTGCTAG | -0.292 |
| TCATTTTTACCTGTGGTACTGTGCTAG | 0.313 |
| TTCGGTTTCGACACTGGGTTAGTGCTA | 7.99 |
| TCATTCCTCTCACCTCGGACTGTGCTA | 1.37 |
| TCATGTATATCTTCAGCACTGTGCTAG | 0.321 |

A few entries again (set 2):
| Strand | RBNS enrichment (R) |
| --- | --- |
| GGUCUUGAAUUUUGUUGGUUACAUAUGCCUUUUUGUUGUUGUUUGUCUUCACUUUUGAUAUAUAAACAGGUAAAUAUGUUUUUUAAAAAAUACUAAAUAUAGAGAAUAUG | 0.65 |
| GACCCUAAGAAGAGCAGGCAGCUGUGCUUGUUGAGAUAUGAGGACAGAAAAGGGACACCCUUUUAUGGUGUCAACUUUUGGAUCUGGGUUUCCCCCAGAUGUUGGGUUGC | 0.274 |
| ACCCAUGAAAUACUUCAUCUUGAGAAGAGUGCUAUGUGGAAAUCACCAAAUAUCUCGCAACUUUAUUUCAUCUGGUGUAAAUCUGAACAUCAACAUAGGAAAACUGUCAU | 0.443 |
| AUGAAAGACUCAUUGUCUUUGUAUUCAGCUCUUAAAUAGUGUAACUAUAUCCCCACCUCUGCUUGCUUUCUUUCCCUCCCCUCCAAUGAUAAAGAAAAUGAUAAAUUUUC | 2.81 |
| UGACCAGUCUGCCUGCUCCUUACUAUAAUUGUGAGGAUUUGUUACUGGAACAGUACAUGGAGGCCUGACCUUGUGGGGGCACAGGGUGGAACCUUAGCUGAAUAUAGUGU | 1.82 |
| AGGGCUUCACUCCCAGAGCACCCCCUUAAUCCCCACUUUUCAGGCCGUCUCAGUAUUGCCUAUGGGGGGUCACCCUCCUUCCCCUACCCCAAGUGCCUUUGCUAUGUUUU | 1.47 |
| UUGUCAGCGAGGCUCCCUGCCACCUAUACUACCAGGUGCUUUGUAGCAGAGAGAGCCCAUCUGCAGAAACCCAGUUGUACUACCUGGGCUUGCUUAAUUUCUACAGGCUG | 0.325 |
| ACCUUGUUACAGUUGGUUUAGUGUAGUGGAUUAUUGACAUGACAUCAUGAGAAGAUGUGUAAUUUUAUACCACAUUUAUAAAACAUGAUUUUGUUUUCUACCCUUCAAGG | 0.376 |
| CGCCCCCUCCCUGACAGGUGUCUUGUCAAGGUGUAUCCUCCGAGUAUCUUGACCACCUGGCACCAUGCAUGGCCAGAGCUCAUGUCAUCUCCUGCCUCUGUCACCUCAGU | 1.93 |
| AAUGUCCCUGCGAACCCACAAUCUCUGCCAGCAGAACUGGUUUUGUUCUGAAUAGUACAGAUUGAUGUGAACACAAAGCAUUUUGUGUAAGGAGAACCCCUUUCUUUUAA | 0.28 |
| AGAGAAUUACUGAGUUCCUCUCAGGACCCCUGAAGAAGCUAUAAGUCAGUACCAGUAGCUUCAGGGUCUGUCGUAGGAGCGAGGACAACUGUAAACACAGGGUCCGCUGA | 0.268 |
